# Experimental data pooled from the literature.
# ± gives the spread as reported.
SMILES,assay,system,setting,tissue uptake
O=C([O-])CN1CCN(CC(=O)[O-])CCN(CC(=O)NCCc2ccc3c(c2)C2C=CCC2C(c2cc4c(cc2Br)OCO4)N3)CCN(CC(=O)[O-])CC1.[111In+3] (stereo not drawn),,"mouse, Hec50 endometrial tumour, large intestine",2 h post injection,15.3 ± 4.78 %ID/g
CCCC[C@H](NC(=O)CNC(=O)CNC(=O)CN1CCN(CC(=O)O)CCN(CC(=O)O)CCN(CC(=O)O)CC1)C(=O)N[C@H]1CC(=O)NCCCC[C@@H](C(N)=O)NC(=O)[C@H](Cc2c[nH]c3ccccc23)NC(=O)[C@H](CCCNC(=N)N)NC(=O)[C@@H](Cc2ccccc2)NC(=O)[C@H](Cc2c[nH]cn2)NC1=O [lead-203 labelled],,"C57 mouse, pancreas","intravenous, 0.056 MBq, 24 h",0.09 ± 0.03 %ID/g
CN1C(=O)[C@@H](Cc2ccc(O)c(I)c2)NC(=O)CNC(=O)[C@H](Cc2ccc3ccccc3c2)NC(=O)[C@H](CCCNC(=N)N)NC(=O)[C@H]1CCCNC(=O)c1ccc(CNC(=O)CN2CCN(CC(=O)O)CCN(CC(=O)O)CC2)cc1 [fluorine-18 labelled],biodistribution,"SCID mouse, Daudi lymphoma xenograft, bone",60 min,2.7 ± 0.13 %ID/g
CCCC[C@H](NC(=O)CNC(=O)CNC(=O)CN1CCN(CC(=O)O)CCN(CC(=O)O)CCN(CC(=O)O)CC1)C(=O)N[C@H]1CC(=O)NCCCC[C@@H](C(N)=O)NC(=O)[C@H](Cc2c[nH]c3ccccc23)NC(=O)[C@H](CCCNC(=N)N)NC(=O)[C@@H](Cc2ccccc2)NC(=O)[C@H](Cc2c[nH]cn2)NC1=O [gallium-67 labelled],,"female C57 mouse B16/F1 melanoma, normal organs except kidney","intravenous, 0.037 MBq, 24 h",< 1.68 %ID/g
CC(C)[C@H](NC(=O)[C@@H]1CCCN1C(=O)[C@H](CCCNC(=N)N)NC(=O)[C@H](CS)NC(=O)[C@H](Cc1c[nH]c2ccccc12)NC(=O)[C@H](CCCNC(=N)N)NC(=O)[C@@H](Cc1ccccc1)NC(=O)[C@H](Cc1c[nH]cn1)NC(=O)[C@H](CCC(=O)O)NC(=O)[C@H](CS)NC(=O)[C@H](CS)NC(=O)CNC(=O)[C@@H]1CC(=O)N[C@@H](CCCNC(=N)N)C(=O)NCC(=O)N[C@@H](CC(=O)O)C(=O)N[C@H](Cc2ccc(O)cc2)C(=O)N1)C(N)=O [technetium-99m labelled],,"C57 mouse, female, B16/F1 melanoma, stomach","intravenous, 0.037 MBq, 2 h",3.43 ± 0.69 %ID/g
CN(C)c1ccc(-c2nc3ccc(OCCCCCN4CCN5CCN(CC4)CC(=O)[O][Al]([18F])[O]C(=O)C5)cc3s2)cc1,,"ICR mouse, liver","intravenous, 30 min",77.2 ± 7.73 %ID/g
CC(C)[C@H](NC(=O)[C@@H]1CCCN1C(=O)[C@H](CCCNC(=N)N)NC(=O)[C@H](CS)NC(=O)[C@H](Cc1c[nH]c2ccccc12)NC(=O)[C@H](CCCNC(=N)N)NC(=O)[C@@H](Cc1ccccc1)NC(=O)[C@H](Cc1c[nH]cn1)NC(=O)[C@H](CCC(=O)O)NC(=O)[C@H](CS)NC(=O)[C@H](CS)NC(=O)COCCOCCNC(=O)[C@@H]1CC(=O)N[C@@H](CCCNC(=N)N)C(=O)NCC(=O)N[C@@H](CC(=O)O)C(=O)N[C@H](Cc2ccc(O)cc2)C(=O)N1)C(N)=O [technetium-99m labelled],,"nude mouse, M21 melanoma xenograft, bone","intravenous, 2 h",0.27 ± 0.09 %ID/g
CCCC[C@H](NC(=O)CN1CCC(NC(=O)CN2CCN(CC(=O)O)CCN(CC(=O)O)CCN(CC(=O)O)CC2)CC1)C(=O)N[C@H]1CC(=O)NCCCC[C@@H](C(N)=O)NC(=O)[C@H](Cc2c[nH]c3ccccc23)NC(=O)[C@H](CCCNC(=N)N)NC(=O)[C@@H](Cc2ccccc2)NC(=O)[C@H](Cc2c[nH]cn2)NC1=O [gallium-68 labelled],biodistribution,"C57BL/6J mouse male tumour-bearing, adrenal glands","2 h post injection, unblocked",0.4 ± 0.2 %ID/g
CCCC[C@H](NC(=O)CNC(=O)CNC(=O)CN1CCN(CC(=O)O)CCN(CC(=O)O)CCN(CC(=O)O)CC1)C(=O)N[C@H]1CC(=O)NCCCC[C@@H](C(N)=O)NC(=O)[C@H](Cc2c[nH]c3ccccc23)NC(=O)[C@H](CCCNC(=N)N)NC(=O)[C@@H](Cc2ccccc2)NC(=O)[C@H](Cc2c[nH]cn2)NC1=O [copper-64 labelled],,"C57 mouse B16/F1 melanoma, blood",2 h,1.03 ± 0.19 %ID/g
CC(C)C[C@H](NC(=O)C[C@H](O)[C@H](CC(C)C)NC(=O)[C@H](Cc1c[nH]cn1)NC(=O)CNC(=O)[C@@H](NC(=O)[C@H](C)NC(=O)[C@H](Cc1c[nH]c2ccccc12)NC(=O)[C@H](CCC(N)=O)NC(=O)[C@@H](Cc1ccccc1)NC(=O)CCNC(=O)CCNC(=O)CN1CCN(CC(=O)O)CCN(CC(=O)O)CCN(CC(=O)O)CC1)C(C)C)C(N)=O [lutetium-177 labelled],,"mouse PC-3 xenograft, tumour","intravenous, 200 pmol, 4 h, without PA",8.3 ± 1.7 %ID/g
O=C(O)CCC(NP(=O)(O)OCCC[C@@H](NC(=O)CC[C@H](NC(=O)CCCCCNC(=O)c1ccc([18F])cc1)C(=O)O)C(=O)O)C(=O)O (stereo partly drawn),,"mouse, CWR22Rv1 xenograft, spleen","dose not given, 4 h, blocking agent pre-dosed",0.275 ± 0.065 %ID/g
N=C(N)NCCC[C@@H]1NC(=O)[C@H](CCCCNC(=O)CON=C[C@H](F)[C@@H](O)[C@H](O)[C@H](O)CO)NC(=O)[C@@H](Cc2ccc(O)cc2)NC(=O)[C@H](CC(=O)O)NC(=O)CNC1=O [fluorine-18 labelled],"microPET imaging, ROI analysis","nude mouse, U-87 MG tumour xenograft, muscle","intravenous, 1 h",0.2 ± 0.12 %ID/g
CCCC[C@H](NC(=O)CNC(=O)CNC(=O)CN1CCN(CC(=O)O)CCN(CC(=O)O)CC1)C(=O)N[C@H]1CC(=O)NCCCC[C@@H](C(N)=O)NC(=O)[C@H](Cc2c[nH]c3ccccc23)NC(=O)[C@H](CCCNC(=N)N)NC(=O)[C@@H](Cc2ccccc2)NC(=O)[C@H](Cc2c[nH]cn2)NC1=O [copper-64 labelled],,"female C57 mouse, B16/F1 melanoma, bone","intravenous, 0.037 MBq, 0.5 h",0.41 ± 0.19 %ID/g
COC(=O)c1ccc(-c2cn(Cc3cc(Cl)ccc3O[11CH3])nn2)cc1,PET/CT,"C57BL/6 mouse, liver",60 min,5.65 %ID/cc
CC(C)[C@H](NC(=O)[C@@H]1CCCN1C(=O)[C@H](CCCNC(=N)N)NC(=O)[C@H](CS)NC(=O)[C@H](Cc1c[nH]c2ccccc12)NC(=O)[C@H](CCCNC(=N)N)NC(=O)[C@@H](Cc1ccccc1)NC(=O)[C@H](Cc1c[nH]cn1)NC(=O)[C@H](CCC(=O)O)NC(=O)[C@H](CS)NC(=O)[C@H](CS)NC(=O)[C@@H]1CC(=O)N[C@@H](CCCNC(=N)N)C(=O)NCC(=O)N[C@@H](CC(=O)O)C(=O)N[C@H](Cc2ccc(O)cc2)C(=O)N1)C(N)=O [technetium-99m labelled],,"C57 mouse, female, B16/F1 melanoma, liver","intravenous, 0.037 MBq, 24 h",0.65 ± 0.1 %ID/g

# For quick reference, copied from above:
SMILES,assay,system,setting,tissue uptake
CN(C)c1ccc(-c2nc3ccc(OCCCCCN4CCN5CCN(CC4)CC(=O)[O][Al]([18F])[O]C(=O)C5)cc3s2)cc1,,"ICR mouse, liver","intravenous, 30 min",77.2 ± 7.73 %ID/g
CC(C)[C@H](NC(=O)[C@@H]1CCCN1C(=O)[C@H](CCCNC(=N)N)NC(=O)[C@H](CS)NC(=O)[C@H](Cc1c[nH]c2ccccc12)NC(=O)[C@H](CCCNC(=N)N)NC(=O)[C@@H](Cc1ccccc1)NC(=O)[C@H](Cc1c[nH]cn1)NC(=O)[C@H](CCC(=O)O)NC(=O)[C@H](CS)NC(=O)[C@H](CS)NC(=O)COCCOCCNC(=O)[C@@H]1CC(=O)N[C@@H](CCCNC(=N)N)C(=O)NCC(=O)N[C@@H](CC(=O)O)C(=O)N[C@H](Cc2ccc(O)cc2)C(=O)N1)C(N)=O [technetium-99m labelled],,"nude mouse, M21 melanoma xenograft, bone","intravenous, 2 h",0.27 ± 0.09 %ID/g
